Results pooled from the literature.
Numbered parts are unrelated; each lists some results of a single study. Several values in a cell are separate wells, animals, samples, runs or records.

Sample 1 — cell line: mouse MPNST tumor cells; method: high-content nuclear imaging; refers to: cell number; tested at: 10 µM; time: 12 h; setting: mean of 2 replicates; baseline: plate mean; reading: higher = more cells; endpoint: nuclei count
O=C(Nc1ccc(C(F)(F)F)cn1)N1CCN(c2ncccc2C(F)(F)F)CC1: 2.74 z-score
CC(CC(=O)OC(C)(C)C)NC(=O)C1=NOC(C(O)(C(F)(F)F)C(F)(F)F)C1 (stereo not shown): 1.46 z-score
CCC(=N\O)/C(C)=C/c1ccc(F)cc1: 0.228 z-score
CC(CN(C)C)CN1c2ccccc2Sc2ccccc21 (stereo not shown): -1.98 z-score
c1ccc(Cn2c(NCc3ccco3)nc3ccccc32)cc1: 0.776 z-score
N#Cc1c(-c2ccccc2)cc(-c2cc(Br)ccc2O)[nH]c1=O: 1.38 z-score

Sample 2 — method: Incucyte 3D growth; tested at: 30 µM; reading: higher = more growth; endpoint: spheroid area
SMILES: CC(C)(C(=O)O)[C@H](NC(=O)Cc1cccc(I)c1)c1ccc2oc(=O)[nH]c2c1
PC-9; 120 h: 9.35e+08 a.u. and 9.07e+08 a.u. and 8.61e+08 a.u. and 8.67e+08 a.u. and 9.09e+08 a.u. and 8.96e+08 a.u.
PC-9; 150 h: 1.17e+09 a.u. and 1.18e+09 a.u. and 1.11e+09 a.u. and 1.21e+09 a.u. and 1.14e+09 a.u.
A375; 102 h: 5.29e+07 a.u. and 7.07e+07 a.u. and 7.39e+07 a.u. and 5.5e+07 a.u. and 6.73e+07 a.u. and 6.04e+07 a.u.

Sample 3 — cell line: sample D normal colon organoid; method: CellTiter-Glo; tested at: 1 µM; setting: mean of replicates; baseline: DMSO; endpoint: viability
O=C(NCc1ncc(C(F)(F)F)cc1Cl)c1ccc2c(c1)C1(CCS(=O)(=O)CC1)[C@@H](C1CC1)N2S(=O)(=O)c1ccc(F)cc1: 119%
CCc1ccccc1C(=O)Nc1n[nH]c2c(C)c(F)c(C3C(C#N)=C(C)N(C)C(C)=C3C#N)cc12: 65%
Cc1ccc2nc(CNCCCOc3ccccc3)cc(O)c2c1: 127%
CN1CCN(C(=O)C(C)(C)c2ccc(C(=O)Nc3cn4cc(-c5ccncc5)ccc4n3)cc2)CC1: 36.1%
CCCCN(CCCC)C(=O)CN1C[C@@H](c2cc(OC)c3c(c2)OCO3)[C@H](C(=O)O)[C@H]1CC(C)(C)CCC: 126%
Cc1c(C(=O)O)cc(-c2ccc(C3CCNCC3)cc2)c2ccc(-c3ccc(C(F)(F)F)cc3)cc12: 114%
C[C@@H]1CN(c2cc(-c3nn(C)c4ccc(OC5(C)CC5)cc34)ncn2)C[C@H](C)O1: 98.8%
CCS(=O)(=O)c1cc2cc(C[C@](O)(CC(C)(C)c3ccc(F)cc3C(N)=O)C(F)(F)F)[nH]c2cn1: 109%
CN(C)C(=O)Cn1cc(-c2nc(C3(c4ccc(-c5cnc(N)nc5)cc4)CC3)no2)cn1: 97.8%
C[C@H](NC(=O)Nc1cc2[nH]ncc2c(CO)n1)c1ccccn1: 91.9%

Sample 4 — effect on: enzyme activity; action: inhibitor; tested at: 0.5 µM; baseline: control; endpoint: remaining activity
Target: Tyrosine-protein kinase Srms (SRMS, Homo sapiens, UniProt Q9H3Y6)
Chain of UniProt Q9H3Y6 (whole entry, looked up): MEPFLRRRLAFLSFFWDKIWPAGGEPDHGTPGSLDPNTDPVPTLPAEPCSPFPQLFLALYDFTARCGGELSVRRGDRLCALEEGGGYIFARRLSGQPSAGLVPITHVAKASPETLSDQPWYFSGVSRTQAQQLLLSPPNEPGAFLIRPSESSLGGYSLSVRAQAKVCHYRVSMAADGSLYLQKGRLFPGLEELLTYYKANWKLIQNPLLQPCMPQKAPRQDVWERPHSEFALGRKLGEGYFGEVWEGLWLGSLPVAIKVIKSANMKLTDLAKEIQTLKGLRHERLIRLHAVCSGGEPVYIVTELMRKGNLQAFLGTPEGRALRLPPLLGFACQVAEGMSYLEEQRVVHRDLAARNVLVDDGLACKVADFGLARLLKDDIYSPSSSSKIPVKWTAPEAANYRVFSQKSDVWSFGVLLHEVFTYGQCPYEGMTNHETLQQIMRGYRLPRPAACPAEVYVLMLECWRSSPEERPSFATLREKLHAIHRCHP
COc1cc2nccc(Oc3ccc(NC(=S)NC(=O)c4ccccc4C)cc3)c2cc1OC: 111%
O=c1c2ccccc2[nH]c(=S)n1CCN1CCC(=C(c2ccc(F)cc2)c2ccc(F)cc2)CC1: 96.7%
COc1cc2ncnc(Nc3ccc(Oc4ccccc4)cc3)c2cc1OC: 31.6%
CC(C)[C@H](CO)Nc1nc(Nc2cc(N)cc(Cl)c2)c2ncn(C(C)C)c2n1: 96.8%
Oc1ccc(-c2nc(-c3ccncc3)c(-c3ccc(F)cc3)[nH]2)cc1: 102%
Nc1ccc2ncnc(NCCc3ccc(Oc4ccccc4)cc3)c2c1: 99.2%
CCOC(=O)c1c(C)[nH]c(/C=C2\C(=O)Nc3ccccc32)c1C: 104%
Nc1[nH]nc2nc3ccccc3nc12: 88.5%
Cn1sc(=O)n(Cc2ccccc2)c1=O: 96.2%
O=C(O)c1ccc2c3c1cccc3c(=O)n1c3ccccc3nc21: 106%
COc1ccc(C(=O)Nc2sc3c(c2C(N)=O)CCCC3)cc1OC: 91%
O=C1NC(=O)C(c2cn(CCCO)c3ncccc23)=C1c1cnccn1: 95.9%
N#CC(C#N)=C(N)/C(C#N)=C/c1ccc(O)cc1: 107%
O=C1NC(=O)C(c2cn(CCCn3ccnc3)c3ccccc23)=C1Nc1ccccc1: 103%
CNC(=O)c1cc(Oc2ccc(NC(=O)Nc3ccc(Cl)c(C(F)(F)F)c3)cc2)ccn1: 107%
